{"data": "Measurements collected from several papers", "note": "± marks the error that the study gave."}
{"Structure (SMILES)": "C#CCCCn1c(Sc2c(C)cc(C)cc2C)nc2c(N)ncnc21", "target": "HSP90AA1 (Homo sapiens, UniProt P07900)", "assay": "binding, FP competition or ITC", "Kd": "28.4 ± 3.3 µM"}
{"Structure (SMILES)": "CC1=CC(C)=[N+]2C1=Cc1ccc(CCC(=O)NCCCn3cc(-c4ccc5c(c4)CCN5C(=O)Cc4cccc(OC(F)(F)F)c4)c4c(N)ncnc43)n1[B-]2(F)F", "target": "RIPK1 (Homo sapiens, UniProt Q13546)", "assay": "binding, TR-FRET saturation binding", "Kd": "0.608 µM"}
{"Structure (SMILES)": "O=C1C=C(NCCc2cc(Br)c(O)c(Br)c2)C(=O)c2ncccc21", "target": "actin", "assay": "SPR", "Kd": "603 µM"}
{"Structure (SMILES)": "O=C1c2cccc3cc([N+](=O)[O-])cc(c23)C(=O)N1NCCO", "target": "Beta-nerve growth factor (Mus musculus, UniProt P01139)", "assay": "binding, SPR", "setting": "25 °C", "Kd": "49.7 µM"}
{"Structure (SMILES)": "Nc1c(C(=O)Nc2c(F)cc(F)cc2Br)sc2nc3c(cc12)CCC3", "target": "Copper chaperone for superoxide dismutase (CCS, Homo sapiens, UniProt O14618)", "assay": "binding, fluorescence anisotropy", "Kd": "7.9 µM"}
{"Structure (SMILES)": "CCCCCCCC(=O)OCC(COP(=O)(O)OC1C(O)C(O)C(OP(=O)(O)O)C(OP(=O)(O)O)C1O)OC(=O)CCCCCCC (centres unmarked)", "target": "Arf-GAP with SH3 domain, ANK repeat and PH domain-containing protein 1, PH-ArfGAP-Ank repeats (Asap1, Mus musculus, UniProt Q9QWY8)", "assay": "protein binding to vesicles, vesicle sedimentation", "system": "large unilamellar vesicles", "setting": "PH-ArfGAP-Ank fragment, added: 75 µM phosphatidylserine", "Kd": "11 ± 2 µM"}
{"Structure (SMILES)": "O=S(=O)(c1ccc(O)cc1O)N1Cc2ccc(O)cc2C1", "target": "PDK2 (Homo sapiens, UniProt Q15119)", "assay": "isothermal titration calorimetry", "Kd": "0.494 µM"}
{"Structure (SMILES)": "CS(=O)(=O)c1ccc(NC(=O)CSc2nnc(-c3ccccc3F)n2-c2ccccc2)cc1", "target": "Cyclin-dependent kinase 2, part with cyclin A (CDK2, Homo sapiens, UniProt P24941)", "Kd": "> 100 µM"}
{"Structure (SMILES)": "Cc1c(O)cc2c(c1C)O[C@](C)(CCCC(C)C)CC2", "target": "RAC-alpha serine/threonine-protein kinase, PH domain (AKT1, Homo sapiens, UniProt P31749, del38-52)", "assay": "binding, SPR", "setting": "PH domain, VL2 deleted", "Kd": "30 ± 4 µM"}
{"Structure (SMILES)": "Nc1ncnc2c1ncn2[C@@H]1O[C@H](COP(=O)(O)OP(=O)(O)OC[C@H]2OC(O)[C@H](O)[C@@H]2O)[C@@H](O)[C@H]1O (some centres unmarked)", "target": "ADP-ribose glycohydrolase AF_1521 (Archaeoglobus fulgidus, UniProt O28751)", "assay": "labelled tracer, fluorescence polarization", "setting": "pH 7.4, 22 °C, 150 mM NaCl", "Kd": "1.2 µM"}
{"Structure (SMILES)": "CC(C)c1cc2c(N3CCN(C4=NCC(C)(C)S4)CC3)ncnc2s1", "target": "Menin (MEN1, Homo sapiens, UniProt O00255)", "assay": "binding, isothermal titration calorimetry", "Kd": "0.201 µM"}
{"note": "Excerpt of the above:"}
{"Structure (SMILES)": "C#CCCCn1c(Sc2c(C)cc(C)cc2C)nc2c(N)ncnc21", "target": "HSP90AA1 (Homo sapiens, UniProt P07900)", "assay": "binding, FP competition or ITC", "Kd": "28.4 ± 3.3 µM"}
